Assay results of several laboratories.
Lines come from different studies, so protocols differ. ± marks the error that the study gave.
Sequence of UniProt P24385 (whole entry, looked up): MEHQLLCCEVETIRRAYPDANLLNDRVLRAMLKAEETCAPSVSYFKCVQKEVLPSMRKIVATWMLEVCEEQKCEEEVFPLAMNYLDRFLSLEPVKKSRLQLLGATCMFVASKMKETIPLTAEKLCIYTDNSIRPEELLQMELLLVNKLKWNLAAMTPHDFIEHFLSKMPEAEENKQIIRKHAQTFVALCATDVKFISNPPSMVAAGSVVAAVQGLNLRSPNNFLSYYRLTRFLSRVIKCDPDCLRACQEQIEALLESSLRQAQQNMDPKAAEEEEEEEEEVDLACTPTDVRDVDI
Sequence of UniProt P09884 (whole entry, looked up): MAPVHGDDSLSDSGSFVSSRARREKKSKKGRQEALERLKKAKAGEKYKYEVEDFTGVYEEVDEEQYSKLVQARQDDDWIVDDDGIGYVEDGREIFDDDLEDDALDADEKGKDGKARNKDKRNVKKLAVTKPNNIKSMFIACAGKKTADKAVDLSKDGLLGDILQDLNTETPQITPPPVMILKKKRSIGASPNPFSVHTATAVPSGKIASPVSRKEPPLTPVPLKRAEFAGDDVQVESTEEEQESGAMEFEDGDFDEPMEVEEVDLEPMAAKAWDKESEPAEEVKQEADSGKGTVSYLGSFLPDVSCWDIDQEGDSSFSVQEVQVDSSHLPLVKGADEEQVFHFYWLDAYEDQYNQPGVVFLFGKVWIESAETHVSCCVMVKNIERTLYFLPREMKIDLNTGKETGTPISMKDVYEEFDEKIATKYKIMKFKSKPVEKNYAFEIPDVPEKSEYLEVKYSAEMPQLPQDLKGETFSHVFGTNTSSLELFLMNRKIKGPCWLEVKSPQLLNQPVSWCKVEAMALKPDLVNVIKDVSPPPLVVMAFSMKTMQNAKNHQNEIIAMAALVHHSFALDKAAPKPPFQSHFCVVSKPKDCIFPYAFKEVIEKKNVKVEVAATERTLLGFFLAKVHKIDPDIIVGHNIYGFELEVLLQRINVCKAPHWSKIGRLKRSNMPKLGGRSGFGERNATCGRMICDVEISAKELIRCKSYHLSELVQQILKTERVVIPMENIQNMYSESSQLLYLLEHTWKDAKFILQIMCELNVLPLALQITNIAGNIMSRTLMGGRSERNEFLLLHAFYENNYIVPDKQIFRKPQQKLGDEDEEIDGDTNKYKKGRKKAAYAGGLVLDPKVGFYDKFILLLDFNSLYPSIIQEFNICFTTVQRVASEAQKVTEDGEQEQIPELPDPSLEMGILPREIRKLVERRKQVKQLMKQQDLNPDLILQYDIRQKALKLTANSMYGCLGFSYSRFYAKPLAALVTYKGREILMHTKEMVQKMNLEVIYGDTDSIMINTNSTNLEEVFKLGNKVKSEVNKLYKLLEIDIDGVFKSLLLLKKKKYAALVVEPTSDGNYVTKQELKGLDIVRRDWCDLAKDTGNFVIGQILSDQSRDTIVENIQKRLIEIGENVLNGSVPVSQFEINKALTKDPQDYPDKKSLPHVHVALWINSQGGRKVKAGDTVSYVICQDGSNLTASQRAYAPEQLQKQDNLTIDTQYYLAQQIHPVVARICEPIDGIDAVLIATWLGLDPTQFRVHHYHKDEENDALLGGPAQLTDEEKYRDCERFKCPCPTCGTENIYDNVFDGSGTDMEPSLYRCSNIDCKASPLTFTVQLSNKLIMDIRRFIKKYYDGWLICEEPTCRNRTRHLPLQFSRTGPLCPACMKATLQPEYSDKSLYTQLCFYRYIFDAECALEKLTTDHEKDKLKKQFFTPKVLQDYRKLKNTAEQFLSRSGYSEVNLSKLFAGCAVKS
Sequence of UniProt P20618 (whole entry, looked up): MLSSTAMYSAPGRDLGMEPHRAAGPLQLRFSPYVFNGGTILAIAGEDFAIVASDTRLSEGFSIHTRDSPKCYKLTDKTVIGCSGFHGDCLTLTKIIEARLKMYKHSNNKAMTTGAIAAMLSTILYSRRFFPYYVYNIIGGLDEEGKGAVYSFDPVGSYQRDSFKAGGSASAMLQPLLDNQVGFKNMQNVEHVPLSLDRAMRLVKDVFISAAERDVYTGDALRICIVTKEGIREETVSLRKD
Sequence of UniProt P28062 (whole entry, looked up): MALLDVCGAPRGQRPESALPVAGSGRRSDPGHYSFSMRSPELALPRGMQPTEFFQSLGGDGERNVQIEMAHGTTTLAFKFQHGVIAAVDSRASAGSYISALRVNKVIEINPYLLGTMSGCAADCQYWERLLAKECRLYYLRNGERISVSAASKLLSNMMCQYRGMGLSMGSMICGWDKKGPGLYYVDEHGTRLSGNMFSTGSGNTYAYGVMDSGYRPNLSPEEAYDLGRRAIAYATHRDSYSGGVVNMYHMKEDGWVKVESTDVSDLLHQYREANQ
Sequence of UniProt P37023 (whole entry, looked up): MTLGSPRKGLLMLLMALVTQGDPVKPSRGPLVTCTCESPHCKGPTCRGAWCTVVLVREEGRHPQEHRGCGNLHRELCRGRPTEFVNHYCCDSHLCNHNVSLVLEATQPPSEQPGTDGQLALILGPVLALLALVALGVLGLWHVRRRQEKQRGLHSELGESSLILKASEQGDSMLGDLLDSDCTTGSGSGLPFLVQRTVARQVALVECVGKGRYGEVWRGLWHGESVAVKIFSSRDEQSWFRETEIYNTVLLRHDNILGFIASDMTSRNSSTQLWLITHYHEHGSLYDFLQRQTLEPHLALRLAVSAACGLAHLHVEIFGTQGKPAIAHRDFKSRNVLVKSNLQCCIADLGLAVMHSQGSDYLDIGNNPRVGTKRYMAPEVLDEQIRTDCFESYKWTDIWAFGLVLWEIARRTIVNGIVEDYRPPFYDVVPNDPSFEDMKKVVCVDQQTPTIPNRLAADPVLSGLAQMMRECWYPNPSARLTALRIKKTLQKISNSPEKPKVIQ
Sequence of UniProt O14745 (whole entry, looked up): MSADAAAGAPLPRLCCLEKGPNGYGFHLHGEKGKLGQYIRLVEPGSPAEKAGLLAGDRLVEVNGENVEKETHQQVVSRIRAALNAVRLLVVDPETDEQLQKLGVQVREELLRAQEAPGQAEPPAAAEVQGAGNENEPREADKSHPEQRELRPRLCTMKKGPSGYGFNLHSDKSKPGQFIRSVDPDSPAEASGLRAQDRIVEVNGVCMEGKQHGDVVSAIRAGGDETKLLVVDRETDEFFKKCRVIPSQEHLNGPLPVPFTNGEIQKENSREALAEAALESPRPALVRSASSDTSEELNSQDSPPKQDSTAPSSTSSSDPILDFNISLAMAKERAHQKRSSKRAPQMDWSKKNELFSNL
Sequence of UniProt Q14145 (whole entry, looked up): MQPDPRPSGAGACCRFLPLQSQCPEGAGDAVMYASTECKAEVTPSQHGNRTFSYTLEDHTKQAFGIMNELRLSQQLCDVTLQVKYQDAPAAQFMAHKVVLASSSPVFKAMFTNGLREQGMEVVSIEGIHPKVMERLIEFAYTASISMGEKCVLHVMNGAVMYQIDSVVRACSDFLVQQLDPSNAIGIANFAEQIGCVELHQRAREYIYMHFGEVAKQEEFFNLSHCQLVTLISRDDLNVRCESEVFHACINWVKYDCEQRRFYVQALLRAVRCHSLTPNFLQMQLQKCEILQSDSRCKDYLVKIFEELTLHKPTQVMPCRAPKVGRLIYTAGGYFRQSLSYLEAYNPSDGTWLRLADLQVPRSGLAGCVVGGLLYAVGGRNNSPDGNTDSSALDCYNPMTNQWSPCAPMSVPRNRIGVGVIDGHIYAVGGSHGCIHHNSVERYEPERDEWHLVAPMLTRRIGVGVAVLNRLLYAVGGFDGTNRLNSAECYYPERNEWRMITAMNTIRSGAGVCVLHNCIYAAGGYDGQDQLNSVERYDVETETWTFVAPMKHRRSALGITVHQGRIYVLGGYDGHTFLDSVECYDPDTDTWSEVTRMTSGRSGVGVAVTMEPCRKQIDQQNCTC
Sequence of UniProt O95166 (whole entry, looked up): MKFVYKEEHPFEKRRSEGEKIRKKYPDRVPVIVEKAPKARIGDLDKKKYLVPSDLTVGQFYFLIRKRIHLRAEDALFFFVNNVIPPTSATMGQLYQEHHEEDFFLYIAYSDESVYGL
Sequence of UniProt C7C422 (whole entry, looked up): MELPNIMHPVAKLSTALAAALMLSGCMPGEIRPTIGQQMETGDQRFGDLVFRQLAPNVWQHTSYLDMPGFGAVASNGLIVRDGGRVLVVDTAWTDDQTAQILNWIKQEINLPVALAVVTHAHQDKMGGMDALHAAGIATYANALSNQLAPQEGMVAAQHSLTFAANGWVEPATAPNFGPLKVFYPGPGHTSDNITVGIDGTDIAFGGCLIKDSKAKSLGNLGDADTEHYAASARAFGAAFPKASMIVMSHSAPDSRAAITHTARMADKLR
Sequence of UniProt Q08499 (whole entry, looked up): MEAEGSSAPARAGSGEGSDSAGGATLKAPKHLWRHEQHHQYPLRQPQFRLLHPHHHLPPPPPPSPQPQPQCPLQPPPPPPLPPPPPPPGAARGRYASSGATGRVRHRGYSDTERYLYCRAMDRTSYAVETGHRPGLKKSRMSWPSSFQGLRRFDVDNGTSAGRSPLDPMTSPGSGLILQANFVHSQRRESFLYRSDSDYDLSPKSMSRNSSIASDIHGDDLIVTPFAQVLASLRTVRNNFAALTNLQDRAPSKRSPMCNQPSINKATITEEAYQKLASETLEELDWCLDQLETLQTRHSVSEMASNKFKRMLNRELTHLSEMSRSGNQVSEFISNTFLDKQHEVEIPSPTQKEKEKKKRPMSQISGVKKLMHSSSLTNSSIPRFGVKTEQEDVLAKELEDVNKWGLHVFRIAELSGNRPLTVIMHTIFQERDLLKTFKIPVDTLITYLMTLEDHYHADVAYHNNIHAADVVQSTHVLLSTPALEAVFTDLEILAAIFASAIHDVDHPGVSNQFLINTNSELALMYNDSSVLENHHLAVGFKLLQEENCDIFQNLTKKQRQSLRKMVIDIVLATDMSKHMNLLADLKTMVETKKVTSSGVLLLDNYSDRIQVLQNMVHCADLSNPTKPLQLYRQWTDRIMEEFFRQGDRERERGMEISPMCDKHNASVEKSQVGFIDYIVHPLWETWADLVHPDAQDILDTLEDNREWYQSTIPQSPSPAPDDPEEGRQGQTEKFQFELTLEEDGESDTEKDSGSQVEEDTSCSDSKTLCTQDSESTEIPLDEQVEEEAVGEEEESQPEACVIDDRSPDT

CC[C@H](C)[C@H](NC(=O)[C@H](CCCNC(=N)N)NC(=O)[C@H](CC(N)=O)NC(=O)[C@H](C)NC(=O)[C@H](Cc1c[nH]cn1)NC(=O)[C@@H](NC(=O)[C@H](CCC(N)=O)NC(=O)[C@@H]1CCCN1C(=O)[C@@H](N)CC(=O)O)[C@@H](C)O)C(=O)N[C@@H](Cc1c[nH]c2ccccc12)C(=O)N[C@@H](CCCNC(=N)N)C(=O)N[C@@H](CCSC)C(=O)N[C@H](C(=O)N[C@@H](CCCCN)C(=O)N[C@@H](CC(C)C)C(=O)N[C@@H](Cc1c[nH]c2ccccc12)C(=O)N[C@@H](CC(C)C)C(=O)NCC(=O)O)[C@@H](C)CC  IC50 (Hsp90; luciferase refolding, inhibitor; rabbit reticulocyte lysate; with: heat-denatured luciferase): 32 ± 5.7 µM
COc1ccc(S(=O)(=O)Nc2ccc(NS(=O)(=O)c3cnn(C)c3)cc2CCC(=O)O)cc1  IC50 (Kelch-like ECH-associated protein 1, Kelch domain (KEAP1, Homo sapiens, UniProt Q14145); Keap1-Nrf2 interaction, inhibitor, fluorescence polarisation): 0.11 µM
COc1cc(-c2nc3ccc(C(=O)NCCCN4CCN(c5ccccc5)C(=O)C4)cc3n2C2CCC2)cc(OC)c1OC  IC50 (Activin receptor type-1-like (ACVRL1, Homo sapiens, UniProt P37023); target engagement in cells, BRET): > 30 µM
CCOc1cncc(-c2ccc(NC(=O)C(CC)c3ccnc(NS(=O)(=O)C4CC4)n3)nc2)n1 (centres unmarked)  IC50 (Ctps1 (Mus musculus, UniProt P70698); enzyme activity, inhibitor, mass spectrometry): 0.0267 µM
O=Cc1ccc2c(c1C#Cc1ccc(O)cc1)C(c1ccc(O)cc1)(c1ccc(O)cc1)c1cc(O)ccc1-2  IC50 (3',5'-cyclic-AMP phosphodiesterase 4D (PDE4D, Homo sapiens, UniProt Q08499); enzyme activity, inhibitor, fluorescence): 0.26 µM
CC(C)S(=O)(=O)c1ccc(S(=O)(=O)C(C)C)c(O)c(=O)c1O  IC50 (Ribonuclease HI (rnhA, Escherichia coli, UniProt P0A7Y4); enzyme activity, inhibitor): 90 µM
C[C@]12CC[C@@H]3c4ccc(OS(N)(=O)=O)cc4CC[C@H]3[C@@H]1[C@H](OCCC#N)CC2=O  IC50 (17-beta-hydroxysteroid dehydrogenase type 1 (HSD17B1, Homo sapiens, UniProt P14061); enzyme activity, inhibitor, radiometric): 4 µM
C=CCNC(=O)[C@H](CCc1ccccc1)NC(=O)[C@H](CC(=O)NCC(C)(C)C)NC(=O)CCc1ccccc1  IC50 (Proteasome component C5/PSMB8 (Homo sapiens, UniProt P20618+P28062); inhibitor): 0.044 µM
CCOC(=O)C(CS)N1C(=O)c2ccc(N(C)C)cc2C1=O (centres unmarked)  IC50 (Metallo-beta-lactamase type 2 (blaNDM-1, Klebsiella pneumoniae, UniProt C7C422); enzyme activity, inhibitor; pH 7): 7.9 µM
O=c1c(-c2cccs2)[n+]([O-])c2ccccc2n1O  IC50 (Na(+)/H(+) exchange regulatory cofactor NHE-RF1, PDZ1 domain (NHERF1, Homo sapiens, UniProt O14745); binding, fluorescence polarization competition; with: FITC-PTH1R C-terminal peptide): 50 ± 5 µM
O=c1[nH]c(=O)c2ncn(CCOCP(=O)(O)OP(=O)(O)OP(=O)(O)O)c2[nH]1  IC50 (DNA polymerase alpha catalytic subunit (POLA1, Homo sapiens, UniProt P09884); DNA polymerase activity, inhibitor; with: [3H]dTTP, calf thymus DNA): > 100 µM
CC[C@H](C)[C@H](NC(=O)[C@H](CC(C)C)NC(=O)[C@H](CCCNC(=N)N)NC(=O)c1ccc(CN2CCNCC2)c(O)c1)C(=O)N[C@@H](Cc1ccccc1)C(N)=O  IC50 (G1/S-specific cyclin-D1, with CDK4 (Homo sapiens, UniProt P24385); binding to cyclin groove, inhibitor, fluorescence polarization competition): 10.4 µM
O=C1Nc2ccc(I)cc2C1=Cc1cc(Br)c(O)c(Br)c1  IC50 (Gamma-aminobutyric acid receptor-associated protein (Homo sapiens, UniProt O95166); binding to K1 peptide, inhibitor, AlphaScreen): 9.1 µM
CCCCCCCCCCCCc1ccc(S(=O)(=O)N2CC2C(=O)OC)cc1 (centres unmarked)  IC50 (Protein disulfide-isomerase A3 (PDIA3, Homo sapiens, UniProt P30101); enzyme activity, inhibitor, absorbance; pH 7.6): > 200 µM

For quick reference, copied from above:
C[C@]12CC[C@@H]3c4ccc(OS(N)(=O)=O)cc4CC[C@H]3[C@@H]1[C@H](OCCC#N)CC2=O  IC50 (17-beta-hydroxysteroid dehydrogenase type 1 (HSD17B1, Homo sapiens, UniProt P14061); enzyme activity, inhibitor, radiometric): 4 µM
C=CCNC(=O)[C@H](CCc1ccccc1)NC(=O)[C@H](CC(=O)NCC(C)(C)C)NC(=O)CCc1ccccc1  IC50 (Proteasome component C5/PSMB8 (Homo sapiens, UniProt P20618+P28062); inhibitor): 0.044 µM
